# Assay results from different studies.
# Protocols differ between the studies behind these lines. Several values in a cell are separate wells, animals, samples, runs or records. Numbers after ± are the reported error.
# Cell line: MDA-MB-231
Structure (SMILES),test,setting,IC50
COC(=O)[C@@H](NC(=O)[C@@H](NC(=O)[C@@H](NC(=O)[C@@H]1CCCN1C(=O)[C@H](C)NC(=O)OC(C)(C)C)C(C)C)C(C)C)C(C)C,"cell growth or viability, SRB",,32.8 µM and 31.6 µM and 33.1 µM
CCC1=C(C)C2=C(c3ccc(C(=O)NCCNC(=O)c4ccc(P(=NC(=O)c5ccccn5)(c5ccccc5)c5ccccc5)cc4)cc3)c3c(C)c(CC)c(C)n3[B-](F)(F)[N+]2=C1C,"cell viability, MTT","72 h, 0.1% DMSO",> 250 µM
CCCc1cc2cc(-n3nc(CC)c4c3CC3(CCC3)CC4=O)cc(N3CCC(O)CC3)c2c(=O)[nH]1,"cell growth or viability, MTS",,2.89 µM
CC1CCC2C(C)C(CCCOC(=O)C(Cc3ccc(N(CCCl)CCCl)cc3)NC(=O)OC(C)(C)C)OC3OC4(C)CCC1C32OO4 (stereo not drawn),"cell growth or viability, CCK-8",,> 50 µM
CC(C)C12OC1C1OC13C1(C)CCC4=C(COC4=O)C1CC1OC13C2OC(=O)CCCOC1OC(CO)C(O)C(O)C1O (stereo not drawn),"cell growth or viability, XTT",47 h,0.26 µM
Cc1ccccc1/C=C/C(=O)N[C@H]1COC(=O)[C@H](CC(=O)O)NC(=O)[C@H]([C@@H](O)C(=O)c2ccccc2N)NC(=O)[C@@H](Cc2ccccc2)NC(=O)[C@@H](NC(=O)[C@@H](Cc2ccccc2)NC(=O)CN)[C@@H](C)OC1=O,,,> 20 µM
CC(=O)[C@@H]1CCCN1C(=O)[C@@H]1CCCN1C(=O)[C@H](Cc1ccccc1)NC(=O)[C@@H](NC(=O)[C@@H](NC(=O)[C@@H](NC(=O)[C@@H]1CCCN1C(=O)[C@H](C)NC(=O)OC(C)(C)C)C(C)C)C(C)C)C(C)C,"cell growth or viability, SRB",,9.65 µM and 9.43 µM and 9.27 µM
O=C(Cc1ccc(Cl)cc1)N1CCN(CC(OCc2ccc3ccccc3c2)c2ccc(Cl)cc2Cl)CC1 (stereo not drawn),"cell growth or viability, MTT",24 h,15.5 µM
CC1CCC2C(C)C(OC(=O)CCC(=O)OC3C(C)OC(n4cc(F)c(=O)[nH]c4=O)C3OC(=O)CCC(=O)OC3OC4OC5(C)CCC6C(C)CCC(C3C)C46OO5)OC3OC4(C)CCC1C32OO4 (stereo not drawn),"cell growth or viability, CCK-8",,> 50 µM
C#CCCCC[C@H](C)C[C@@H](C)C(=O)N(C)[C@@H](C)C(=O)N1CCC[C@H]1C(=O)N(C)[C@H](C(=O)N(C)[C@H](C(=O)OC)C(C)C)C(C)C,"cell growth or viability, SRB",,3.11 µM and 2.58 µM and 2.96 µM
CCC1(c2ccc(NC(=O)CCC(=O)OC3OC4OC5(C)CCC6C(C)CCC(C3C)C46OO5)cc2)CCC(=O)NC1=O (mixture of isomers),"cell growth or viability, CCK-8",,> 50 µM
CCC1=C(C)C2=C(c3ccc(P(=NC4=[O+][Ru-]([Cl])[n+]5ccccc54)(c4ccccc4)c4ccccc4)cc3)c3c(C)c(CC)c(C)n3[B-](C)(C)[N+]2=C1C.Cc1ccc(C(C)C)cc1.Cl,"cell viability, MTT","72 h, 0.1% DMSO",68.2 ± 8.2 µM
Cc1cc(Oc2nc(N3CC[C@@H](c4ccncc4)C3)ncc2F)[nH]n1,cell growth or viability,,> 100 µM
Cc1ccc(CC(=O)N2CCN(CC(OCc3ccc4ccccc4c3)c3ccc(Cl)cc3Cl)CC2)cc1 (stereo not drawn),"cell growth or viability, MTT",24 h,25 µM
Cc1ccccc1/C=C/C(=O)N[C@@H](CO)C(=O)N[C@H](C(=O)N[C@H](Cc1ccccc1)C(=O)N[C@@H]1C(=O)N2[C@@H](CC(=O)O)C(=O)Nc3ccccc3[C@@]2(O)[C@@H]1O)[C@@H](C)O,,,> 20 µM

# A few entries again:
Structure (SMILES),test,setting,IC50
CCCc1cc2cc(-n3nc(CC)c4c3CC3(CCC3)CC4=O)cc(N3CCC(O)CC3)c2c(=O)[nH]1,"cell growth or viability, MTS",,2.89 µM
CC1CCC2C(C)C(CCCOC(=O)C(Cc3ccc(N(CCCl)CCCl)cc3)NC(=O)OC(C)(C)C)OC3OC4(C)CCC1C32OO4 (stereo not drawn),"cell growth or viability, CCK-8",,> 50 µM
